Measurements from different studies.
Protocols differ between the studies behind these lines. “And” joins repeats or separate records; there may be more than shown. ± gives the spread as reported.
TRPV1: Transient receptor potential cation channel subfamily V member 1 (TRPV1, Homo sapiens, UniProt Q8NER1)
Sequence of UniProt Q8NER1 (whole entry, looked up): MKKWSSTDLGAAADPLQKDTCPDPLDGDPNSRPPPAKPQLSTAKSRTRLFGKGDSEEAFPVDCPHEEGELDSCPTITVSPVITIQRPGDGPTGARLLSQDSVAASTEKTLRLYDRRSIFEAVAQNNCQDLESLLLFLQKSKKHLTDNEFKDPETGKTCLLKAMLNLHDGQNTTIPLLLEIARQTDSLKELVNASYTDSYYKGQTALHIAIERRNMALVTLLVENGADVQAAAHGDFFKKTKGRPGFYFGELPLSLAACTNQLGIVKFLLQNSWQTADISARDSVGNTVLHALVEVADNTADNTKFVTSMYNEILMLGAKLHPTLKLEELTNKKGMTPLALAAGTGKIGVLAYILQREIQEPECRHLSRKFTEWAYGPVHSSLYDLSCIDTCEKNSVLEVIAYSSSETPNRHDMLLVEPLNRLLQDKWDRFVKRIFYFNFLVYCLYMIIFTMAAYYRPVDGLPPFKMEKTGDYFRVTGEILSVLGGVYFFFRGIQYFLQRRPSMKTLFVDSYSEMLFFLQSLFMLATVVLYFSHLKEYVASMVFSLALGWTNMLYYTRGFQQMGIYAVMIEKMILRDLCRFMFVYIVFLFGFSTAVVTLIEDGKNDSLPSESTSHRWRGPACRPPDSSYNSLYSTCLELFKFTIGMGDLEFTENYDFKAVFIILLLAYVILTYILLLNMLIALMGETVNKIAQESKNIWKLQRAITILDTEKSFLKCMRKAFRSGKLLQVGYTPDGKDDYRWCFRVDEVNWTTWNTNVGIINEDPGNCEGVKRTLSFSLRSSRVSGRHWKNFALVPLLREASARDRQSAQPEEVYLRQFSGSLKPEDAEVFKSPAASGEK
NR4A1: Nuclear receptor subfamily 4 group A member 1 (NR4A1, Homo sapiens, UniProt P22736)
Sequence of UniProt P22736 (whole entry, looked up): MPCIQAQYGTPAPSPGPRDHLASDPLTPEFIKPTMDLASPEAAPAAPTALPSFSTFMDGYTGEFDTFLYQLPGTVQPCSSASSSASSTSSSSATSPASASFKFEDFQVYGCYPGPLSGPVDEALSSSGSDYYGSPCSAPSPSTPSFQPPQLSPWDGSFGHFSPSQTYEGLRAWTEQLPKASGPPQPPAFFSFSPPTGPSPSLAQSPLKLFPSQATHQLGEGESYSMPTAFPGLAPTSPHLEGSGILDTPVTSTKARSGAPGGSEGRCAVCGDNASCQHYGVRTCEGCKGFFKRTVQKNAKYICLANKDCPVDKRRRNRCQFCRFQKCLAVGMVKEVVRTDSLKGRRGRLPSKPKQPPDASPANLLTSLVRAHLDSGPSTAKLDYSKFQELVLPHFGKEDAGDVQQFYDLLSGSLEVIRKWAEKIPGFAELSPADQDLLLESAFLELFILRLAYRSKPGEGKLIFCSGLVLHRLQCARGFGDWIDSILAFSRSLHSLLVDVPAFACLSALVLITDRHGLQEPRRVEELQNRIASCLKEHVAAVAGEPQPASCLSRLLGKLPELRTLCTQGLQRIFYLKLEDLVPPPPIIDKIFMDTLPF
Tumor necrosis factor receptor superfamily member 9/Nectin-4: Tumor necrosis factor receptor superfamily member 9/Nectin-4 (Homo sapiens, UniProt Q07011+Q96NY8)
Sequence of UniProt Q07011 (whole entry, looked up): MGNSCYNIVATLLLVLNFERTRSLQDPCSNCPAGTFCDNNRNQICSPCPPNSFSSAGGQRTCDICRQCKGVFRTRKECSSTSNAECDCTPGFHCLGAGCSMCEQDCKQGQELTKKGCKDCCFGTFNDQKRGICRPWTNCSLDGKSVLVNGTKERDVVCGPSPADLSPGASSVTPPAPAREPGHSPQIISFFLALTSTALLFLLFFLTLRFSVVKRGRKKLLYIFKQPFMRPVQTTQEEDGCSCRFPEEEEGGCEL
Sequence of UniProt Q96NY8 (whole entry, looked up): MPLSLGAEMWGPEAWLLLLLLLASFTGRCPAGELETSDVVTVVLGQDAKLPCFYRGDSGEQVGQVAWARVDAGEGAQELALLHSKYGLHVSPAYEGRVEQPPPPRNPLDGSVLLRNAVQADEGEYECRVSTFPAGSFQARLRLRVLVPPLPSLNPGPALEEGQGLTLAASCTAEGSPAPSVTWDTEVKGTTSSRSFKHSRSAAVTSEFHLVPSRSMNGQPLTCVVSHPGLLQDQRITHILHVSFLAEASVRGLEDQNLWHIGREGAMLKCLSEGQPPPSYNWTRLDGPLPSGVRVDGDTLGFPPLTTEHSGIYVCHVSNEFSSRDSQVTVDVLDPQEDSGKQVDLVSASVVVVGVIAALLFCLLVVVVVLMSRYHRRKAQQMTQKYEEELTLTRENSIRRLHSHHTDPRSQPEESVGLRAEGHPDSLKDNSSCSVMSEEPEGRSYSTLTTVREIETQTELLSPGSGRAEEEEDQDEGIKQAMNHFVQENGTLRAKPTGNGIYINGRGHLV
T1: ssDNA, aptamer; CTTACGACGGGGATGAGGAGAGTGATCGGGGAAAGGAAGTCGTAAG
Sequence of UniProt Q16774 (whole entry, unmodified, looked up): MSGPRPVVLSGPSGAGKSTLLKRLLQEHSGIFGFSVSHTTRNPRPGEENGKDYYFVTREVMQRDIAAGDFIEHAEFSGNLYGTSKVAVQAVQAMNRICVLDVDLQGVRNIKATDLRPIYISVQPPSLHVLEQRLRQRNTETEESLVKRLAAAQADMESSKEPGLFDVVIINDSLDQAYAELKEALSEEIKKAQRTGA
Sequence of UniProt P51575 (whole entry, unmodified, looked up): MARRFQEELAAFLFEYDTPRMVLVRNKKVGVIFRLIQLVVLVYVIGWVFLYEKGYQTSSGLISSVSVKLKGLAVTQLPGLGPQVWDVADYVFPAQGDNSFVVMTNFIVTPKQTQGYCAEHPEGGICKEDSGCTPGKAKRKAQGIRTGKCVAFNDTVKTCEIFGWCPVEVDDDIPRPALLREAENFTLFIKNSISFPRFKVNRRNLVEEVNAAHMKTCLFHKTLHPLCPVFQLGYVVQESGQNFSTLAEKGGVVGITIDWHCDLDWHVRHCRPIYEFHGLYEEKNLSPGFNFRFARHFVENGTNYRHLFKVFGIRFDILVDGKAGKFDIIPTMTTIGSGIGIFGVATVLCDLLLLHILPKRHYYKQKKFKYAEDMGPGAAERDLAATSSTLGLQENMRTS
Sequence of UniProt P29597 (whole entry, looked up): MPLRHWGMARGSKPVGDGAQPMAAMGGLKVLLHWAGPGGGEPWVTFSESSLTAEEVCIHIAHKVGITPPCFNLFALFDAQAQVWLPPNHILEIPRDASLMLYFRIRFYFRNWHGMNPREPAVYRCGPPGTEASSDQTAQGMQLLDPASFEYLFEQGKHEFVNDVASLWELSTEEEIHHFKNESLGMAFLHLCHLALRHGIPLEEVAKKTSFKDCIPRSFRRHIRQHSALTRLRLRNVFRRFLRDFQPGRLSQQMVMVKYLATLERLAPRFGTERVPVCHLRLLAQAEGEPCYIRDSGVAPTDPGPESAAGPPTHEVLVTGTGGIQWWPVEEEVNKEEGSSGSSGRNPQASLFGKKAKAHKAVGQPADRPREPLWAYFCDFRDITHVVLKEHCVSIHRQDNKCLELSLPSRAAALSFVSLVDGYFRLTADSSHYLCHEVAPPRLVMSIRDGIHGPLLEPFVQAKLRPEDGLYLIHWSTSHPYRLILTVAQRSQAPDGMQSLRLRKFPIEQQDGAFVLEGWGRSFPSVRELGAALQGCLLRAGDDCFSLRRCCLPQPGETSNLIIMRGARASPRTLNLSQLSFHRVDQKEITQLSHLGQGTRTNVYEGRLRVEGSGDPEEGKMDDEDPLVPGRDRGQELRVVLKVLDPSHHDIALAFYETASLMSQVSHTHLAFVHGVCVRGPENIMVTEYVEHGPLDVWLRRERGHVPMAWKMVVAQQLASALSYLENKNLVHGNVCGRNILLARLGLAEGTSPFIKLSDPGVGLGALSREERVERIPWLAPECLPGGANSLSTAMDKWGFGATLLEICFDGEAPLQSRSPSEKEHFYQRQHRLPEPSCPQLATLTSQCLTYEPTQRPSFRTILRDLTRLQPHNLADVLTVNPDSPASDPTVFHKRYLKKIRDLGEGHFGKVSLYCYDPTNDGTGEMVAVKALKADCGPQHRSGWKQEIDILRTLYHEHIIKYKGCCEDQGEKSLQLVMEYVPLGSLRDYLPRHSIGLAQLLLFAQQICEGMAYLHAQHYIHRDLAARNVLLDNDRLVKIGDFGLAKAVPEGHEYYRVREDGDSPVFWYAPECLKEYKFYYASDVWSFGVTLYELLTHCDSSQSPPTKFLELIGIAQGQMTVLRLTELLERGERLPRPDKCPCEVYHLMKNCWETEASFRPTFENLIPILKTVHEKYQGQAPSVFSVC
Sequence of UniProt P41743 (whole entry, looked up): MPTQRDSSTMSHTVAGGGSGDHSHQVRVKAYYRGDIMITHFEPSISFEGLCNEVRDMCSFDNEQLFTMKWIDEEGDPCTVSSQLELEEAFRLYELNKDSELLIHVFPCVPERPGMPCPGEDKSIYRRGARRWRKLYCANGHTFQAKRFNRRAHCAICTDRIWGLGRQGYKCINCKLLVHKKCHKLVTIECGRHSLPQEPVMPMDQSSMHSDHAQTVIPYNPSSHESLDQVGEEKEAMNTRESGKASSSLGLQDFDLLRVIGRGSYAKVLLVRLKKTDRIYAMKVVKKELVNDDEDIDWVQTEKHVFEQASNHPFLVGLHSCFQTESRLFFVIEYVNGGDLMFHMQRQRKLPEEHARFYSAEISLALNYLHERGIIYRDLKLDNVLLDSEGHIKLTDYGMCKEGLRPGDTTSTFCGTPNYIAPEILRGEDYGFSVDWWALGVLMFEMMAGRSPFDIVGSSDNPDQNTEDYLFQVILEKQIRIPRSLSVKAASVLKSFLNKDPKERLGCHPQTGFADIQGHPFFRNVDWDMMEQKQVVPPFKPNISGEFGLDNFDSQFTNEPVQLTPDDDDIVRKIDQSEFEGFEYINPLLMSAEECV
Sequence of UniProt Q96SW2 (whole entry, looked up): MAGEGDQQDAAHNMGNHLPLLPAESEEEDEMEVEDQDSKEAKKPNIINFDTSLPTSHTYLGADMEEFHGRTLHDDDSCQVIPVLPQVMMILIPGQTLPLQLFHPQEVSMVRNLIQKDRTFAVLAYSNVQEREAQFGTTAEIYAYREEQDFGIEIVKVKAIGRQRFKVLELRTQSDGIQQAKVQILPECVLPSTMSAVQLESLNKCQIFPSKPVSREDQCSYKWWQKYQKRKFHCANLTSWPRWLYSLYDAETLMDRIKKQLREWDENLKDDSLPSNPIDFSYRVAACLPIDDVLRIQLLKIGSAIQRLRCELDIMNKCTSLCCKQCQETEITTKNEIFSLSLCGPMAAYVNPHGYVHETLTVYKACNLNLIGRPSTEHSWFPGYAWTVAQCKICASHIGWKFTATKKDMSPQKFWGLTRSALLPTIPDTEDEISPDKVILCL

Under enzyme activity, `[Cl][Fe]([Cl])[Cl]` is recorded as “no effect” (Neuroendocrine convertase 1 (Homo sapiens, UniProt P29120); concentration not given, 2 h, pH 6.0, together with: pERTKR-AMC substrate).
With `C=CC(=O)N1CCC(C(=O)NCC(=O)N2CCN(c3nc(-c4cnc(N)nc4C(F)F)nc(N4CCOCC4)n3)CC2)CC1` the remaining binding was 56% (Non-receptor tyrosine-protein kinase TYK2, JH2 pseudokinase domain (TYK2, Homo sapiens, UniProt P29597); KINOMEscan; 1 µM).
`COc1cc(CNC(=O)CCCC/C=C/C(C)C)ccc1O`: “closed time constant” 55.6 ms (TRPV1; channel gating, single-channel inside-out patch; 100 nM, component 4 of four).
The activity of `COc1cc2ncnc(Nc3ccc(Oc4ccccc4)cc3)c2cc1OC` is reported as 400 ± 100% (SMUG1 (Homo sapiens, UniProt Q53HV7); enzyme activity, activator, fluorescence; 20 µM; baseline: control).
`O=C1CCC(N2Cc3cc(CNC(=O)c4ccc(F)cc4)ccc3C2=O)C(=O)N1` (stereo not drawn) — result for “degradation rate constant”: 0.1 h⁻¹ (Cereblon/Casein kinase I alpha (CSNK1A1/CRBN, Homo sapiens, UniProt P48729+Q96SW2); degrader, live-cell HiBiT kinetic; HEK293 LgBiT; 10 µM).
`OC[C@H]1OC(O)[C@H](O)[C@@H](O)[C@@H]1O` (stereo partly drawn) gave a kcat of 41 ± 25 s⁻¹ (Hexokinase-3 (HK3, Homo sapiens, UniProt P52790, N221A); substrate inhibition; mutant N221A, partial substrate inhibition model, together with: ATP 20 mM).
With `O=C(O)c1ccc(Nc2ncc3c(n2)-c2ccc(Cl)cc2C(c2c(F)cccc2F)=NC3)cc1` the remaining activity was 108% (human PKCα(h); kinase activity; 1 µM).
For `CNc1ncc2c(/C=C/C(=O)N3CCC(OC)CC3)nn(Cc3cccc(C(F)(F)F)c3)c2n1`, the remaining activity was 95% (PRKCI (Homo sapiens, UniProt P41743); kinase activity, inhibitor; 1 µM; baseline: untreated control).
`Oc1ccccc1-c1n[nH]cc1-c1ccnc2ccccc12`: “log2 fold change” -0.35 (Serine/threonine-protein kinase CST20 (CST20, Candida albicans, UniProt P0CY24); kinase binding, MIB/MS competition; Candida albicans lysate; 10 µM; baseline: DMSO, negative = stronger binding).
The specific binding of `Nc1ncnc2c1ncn2[C@@H]1O[C@H](COP(=O)(O)CP(=O)(O)OP(=O)(O)O)[C@@H](O)[C@H]1O` is reported as 144 CCPM and 180 CCPM (P2X purinoceptor 1 (P2RX1, Homo sapiens, UniProt P51575, R292A); saturation binding; HEK293; 79 nM).
For `O=C(O)[C@@H]1CCCN1c1ncnc2[nH]cnc12` (racemic), “log fold enrichment” read 0.0684 (ATP-dependent RNA helicase DDX1 (Homo sapiens, UniProt Q92499); binding, affinity selection mass spectrometry; baseline: other proteins in batch).
`CCCCCCCCOC(=O)NS(=O)(=O)Nc1ccc(-c2cc3ccccc3[nH]2)cc1OC` gave a kcat of 3.59 ± 0.41 s⁻¹ (Polyunsaturated fatty acid lipoxygenase ALOX15 (Oryctolagus cuniculus, UniProt P12530); 8 µM, together with: arachidonic acid).
The inhibition of `Cc1ccc(OC[C@@H]2CN(CCN3CCc4ccccc43)CCO2)cn1` is reported as 94.2% (DRD4 (Homo sapiens, UniProt P21917); radioligand binding; concentration not given, together with: [3H]N-methylspiperone).
`C[C@H]1O[C@@H](O[C@H]2CC[C@@]3(C)[C@@H](CC[C@]4(C)[C@@H]3C=C[C@]35OC[C@@]6(CCC(C)(C)C[C@H]63)[C@@H](O)C[C@]54C)[C@]2(C)CO)[C@H](O)[C@@H](O[C@@H]2O[C@H](CO)[C@@H](O)[C@H](O)[C@H]2O)[C@H]1O` — result for “MST normalised fluorescence”: 885 a.u. (SIRT1 (Homo sapiens, UniProt Q96EB6); binding, microscale thermophoresis; 122 nM).
`COc1cccc2c(Nc3ccc4[nH]c(C(=O)N/N=C/c5ccc(SC)cc5)cc4c3)cc(C)nc12` has an activation of 1.01 ± 0.06 fold (NR4A1; reporter gene, Gal4 hybrid reporter; 1 µM; baseline: vehicle).
`O=C(C=Cc1ccccc1)Nc1cc(-c2ccnc(N3CCOCC3)c2)ccn1` has a binding response of 41.5 RU (NR4A1; SPR; 10.0 µM).
The Emax of `CSc1ccc(C(=O)/C=C/c2cc(C)c(OC(C)(C)C(=O)O)c(C)c2)cc1` is reported as 61% (PPARD (Homo sapiens, UniProt Q03181); reporter gene, agonist, luciferase reporter; baseline: maximal control activation).
`Nc1ncnc2c1ncn2[C@@H]1O[C@H](COP(=O)(O)OP(=O)(O)O)[C@@H](O)[C@H]1O` gave a Kd of 24.3 µM (T1, ssDNA, aptamer; ITC).
`O=C(Nc1ccccc1OS(=O)(=O)c1ccc([N+](=O)[O-])cc1)c1ccc2ncccc2c1` gave a fluorescence increase of 80.8 ± 4.07% (P2X purinoceptor 2 (P2RX2, Homo sapiens, UniProt Q9UBL9); calcium mobilization; MCF7 stably transfected; 100 µM, together with: ATP 100 µM).
For `Cl.[2H]C([2H])([2H])CC(=O)c1cnc(NC(=O)C2CC2)cc1Nc1cccc(-c2ncn(C([2H])([2H])[2H])n2)c1OC`, “time to return to baseline” read 24 to 48 h (TYK2 (Homo sapiens, UniProt P29597); IFNα-induced STAT1 phosphorylation, flow cytometry; human, whole blood T cells; concentration not given, after last dose day 14, together with: IFN-alpha).
The SILAC ratio of `C#Cc1cccc(Oc2ccc(-c3nn([C@@H]4CCCN(C(=O)C=C)C4)c4ncnc(N)c34)cc2)c1` is reported as 20 (MAP3K20 (Homo sapiens, UniProt Q9NYL2); ABPP-SILAC; 1 µM, 1 h; baseline: DMSO).
`NCCCC(=O)O`: “normalised MST signal” 0.0239 (SLC6A6 (Homo sapiens, UniProt P31641, G62A); binding, microscale thermophoresis; 30.5 nM, room temperature, together with: 50 nM labelled protein; higher = more binding).
Under “reversal potential change”, `CC(=O)Nc1nc2c(Oc3cc(-c4ccc(C(F)(F)F)cc4)ncn3)cccc2s1` is recorded as -21.2 ± 0.2 mV (TRPV1; antagonist, automated patch clamp; HEK-293T expressing hTRPV1; 1 µM, together with: 100 nM capsaicin).
`Nc1ccn([C@@H]2O[C@H](COP(=O)(O)OP(=O)(O)OP(=O)(O)O)C[C@H]2O)c(=O)n1` gave an incorporation efficiency of 84% (DNA-directed RNA polymerase subunit beta' / DNA-directed RNA polymerase subunit beta (rpoC/rpoB, Escherichia coli, UniProt P0A8T7+P0A8V2); RNA extension, denaturing gel; Escherichia coli, elongation complex, 6-MI template; 5 µM, 10 min, 25 °C).
`CCCC[C@@H]1NC(=O)[C@H](Cc2ccc(O)cc2)NC(=O)[C@@H]2CCCN2C(=O)[C@H](CC(=O)O)NC(=O)[C@H](C)NC(=O)[C@H](Cc2ccccc2)NC(=O)[C@@H]2CSCCC(=O)N3CN(CN(C3)C(=O)CCSC[C@@H](C(=O)N[C@@H](C)C(N)=O)NC1=O)C(=O)CCSC[C@H](NC(C)=O)C(=O)N[C@@H](CC(C)(C)C)C(=O)N1CCC[C@H]1C(=O)N[C@@H](CCC(=O)O)C(=O)N[C@H](CCCCNC(=O)CCc1cn(CCOCCOCCOCCOCCOCCC(=O)NCCCC[C@H]3NC(=O)[C@H](Cc4cccc5ccccc45)NC(=O)[C@@H]4CCCN4C(=O)[C@@H](NC(C)=O)CSCCC(=O)N4CN5CN(C4)C(=O)CCSC[C@H](NC3=O)C(=O)N[C@@H](CCSC)C(=O)N[C@@H](CCCCNC(=N)N)C(=O)N[C@@H](Cc3c[nH]cn3)C(=O)N[C@@H](Cc3c[nH]c4ccccc34)C(=O)N[C@@H](CO)C(=O)N[C@@H]([C@@H](C)O)C(=O)N3CCC[C@H]3C(=O)N3C[C@H](O)C[C@H]3C(=O)N[C@@H](Cc3c[nH]c4ccccc34)C(=O)N[C@H](C(N)=O)CSCCC5=O)nn1)C(=O)N1CCC[C@H]1C(=O)N[C@@H](Cc1ccc(O)cc1)C(=O)N2` has an Emax of 39 fold (Tumor necrosis factor receptor superfamily member 9/Nectin-4; reporter gene, agonist; HT-1376 coculture with reporter cells; baseline: background).
For `CCN1CCC[C@H]1CNC(=O)c1c(O)c(Cl)cc(Cl)c1OC`, “log2 fold change” read 0.328 (Mas-related G-protein coupled receptor member F (MRGPRF, Homo sapiens, UniProt Q96AM1); β-arrestin recruitment, TANGO luminescence, item: MRGPRF; concentration not given; baseline: basal luminescence).
`Nc1nc2c(ncn2[C@@H]2O[C@H](COP(=O)(O)O)[C@@H](O)[C@H]2O)c(=O)[nH]1`: “ΔH of binding” -11.8 kcal/mol and -10.4 kcal/mol and -10.6 kcal/mol (GUK1 (Homo sapiens, UniProt Q16774); ITC; concentration not given, together with: 150 mM KCl).
The linear DNA of `O=c1nc(SCc2cc(F)cc(C(F)(F)F)c2)nc(SCc2ccc3sccc3c2)[nH]1` is reported as 9.32% (TOP2A (Homo sapiens, UniProt P11388); DNA cleavage; 125 µM, replicate 2).
`CCn1c(-c2nc3cc(C(=O)N4CCC[C@@H](N)C4)cc(OC)c3n2C)cc2cccnc21` — result for citrullination: “no effect” (PADI1 (Homo sapiens, UniProt Q9ULC6); enzyme activity, cell lysate; HEK293 expressing PADI1; 100 µM, together with: calcium 2 mM).
Under “log2 fold change”, `N#Cc1ccn2c(-c3ccncc3)c(-c3ccc(F)cc3)nc2c1` is recorded as -2.49 (Mitogen-activated protein kinase HOG1 (HOG1, Candida albicans, UniProt Q92207); MIB/MS competition binding; Candida albicans cell lysate; 10 µM; baseline: DMSO, lower = stronger binding).
`Cc1ncsc1-c1ccc([C@H](CC(=O)NCCOCCOCCOCCOCCOCCC(=O)N2CCC(Nc3cc(C(=O)NC[C@H](O)CN4CCc5ccccc5C4)ncn3)CC2)NC(=O)[C@@H]2C[C@@H](O)CN2C(=O)[C@@H](NC(=O)C2(F)CC2)C(C)(C)C)cc1` — result for “time to degradation”: 6 h (PRMT5 (Homo sapiens, UniProt O14744); degrader, Western blot; MDA-MB-468; 2 µM).
`COc1ccc(Cc2nnc(NS(=O)(=O)c3ccc(C(C)(C)C)cc3)s2)cc1` gave a Kii of > 250 µM (Glutathione hydrolase 1 proenzyme, without transmembrane domain (Homo sapiens, UniProt P19440); GSH hydrolysis; 37 °C, no inhibition up to 250 µM, together with: GSH 5-20 µM).
For `CCCC[C@@H]1NC(=O)[C@H](Cc2ccc(O)cc2)NC(=O)[C@@H]2CCCN2C(=O)[C@H](CCC(=O)O)NC(=O)[C@H](C)NC(=O)[C@H](Cc2ccccc2)NC(=O)[C@@H]2CSCCC(=O)N3CN(CN(C3)C(=O)CCSC[C@H](NC(C)=O)C(=O)N[C@@H](CC(C)(C)C)C(=O)N3CCC[C@H]3C(=O)N[C@@H](CCC(=O)O)C(=O)N[C@H](CCCCNC(=O)CCc3cn(CCOCCOCCOCCN(CCOCCOCCOCCC(=O)N[C@H]4CSCCC(=O)N5CN6CN(C5)C(=O)CCSC[C@H](NC(=O)[C@@H](CC(=O)O)NC(=O)[C@H](Cc5cccc7ccccc57)NC(=O)[C@@H]5CCCN5C4=O)C(=O)N[C@@H](CCSC)C(=O)N[C@@H](CCCCNC(=N)N)C(=O)N[C@@H](CC(=O)O)C(=O)N[C@@H](Cc4c[nH]c5ccccc45)C(=O)N[C@@H](CO)C(=O)N[C@@H]([C@@H](C)O)C(=O)N4CCC[C@H]4C(=O)N4C[C@H](O)C[C@H]4C(=O)N[C@@H](Cc4c[nH]c5ccccc45)C(=O)N[C@H](C(N)=O)CSCCC6=O)CCOCCOCCOCCn4cc(CCC(=O)NCCCC[C@H]5NC(=O)[C@H](CCC(=O)O)NC(=O)[C@@H]6CCCN6C(=O)[C@H](CC(C)(C)C)NC(=O)[C@@H](NC(C)=O)CSCCC(=O)N6CN7CN(C6)C(=O)CCSC[C@H](NC(=O)[C@H](Cc6ccc(O)cc6)NC(=O)[C@@H]6CCCN6C5=O)C(=O)N[C@@H](Cc5ccccc5)C(=O)N[C@@H](C)C(=O)N[C@@H](CCC(=O)O)C(=O)N5CCC[C@H]5C(=O)N[C@@H](Cc5ccc(O)cc5)C(=O)N[C@@H](CCCC)C(=O)N[C@H](C(N)=O)CSCCC7=O)nn4)nn3)C(=O)N3CCC[C@H]3C(=O)N[C@@H](Cc3ccc(O)cc3)C(=O)N2)C(=O)CCSC[C@@H](C(N)=O)NC1=O`, the Emax was 11 fold (Tumor necrosis factor receptor superfamily member 9/Nectin-4; reporter gene, agonist; HT-1376 coculture with reporter cells; baseline: background).
With `CC(=O)N[C@H](C(=O)N1C[C@H](O)C[C@H]1C(=O)NCc1ccc(-c2scnc2C)cc1)C(C)(C)SCCCCCCNC(=O)C[C@@H]1N=C(c2ccc(Cl)cc2)c2c(sc(C)c2C)-n2c(C)nnc21` the cooperativity was 1.5 (VHL/BRD3, BD1; with Elongin B/C (Homo sapiens, UniProt P40337+Q15059); ITC; 25 °C, PROTAC:Brd3^BD1; baseline: Kd binary over Kd ternary).
For `COc1cc(F)ccc1-c1ncnc(Nc2cccc(C[S@](C)(=N)=O)c2)n1`, the remaining activity was 79% (MST1R (Homo sapiens, UniProt Q04912); kinase activity; 10 µM, together with: 10 µM ATP).
With `C[C@@H](O)[C@H]1C(=O)N2C(C(=O)O)=C(S[C@@H]3CN[C@H](C(=O)N(C)C)C3)[C@H](C)[C@H]12` the Km was 0.0232 µM (beta-lactamase OXA-1152; enzyme activity, substrate, HPLC hydrolysis).
